Experimental data collected from several papers.
Each numbered part is a random draw from the data of one study; scales do not carry over between parts.

Set 1 — method: universal PBM; molecule type: double-stranded DNA, one strand shown; medium: in vitro; tested at: 600 nM; direction: higher = stronger binding
Target: Sal-like protein 4, full length isoform A (SALL4, Homo sapiens, UniProt Q9UJQ4, residues 1-1053)
Sequence of UniProt Q9UJQ4 (whole entry, looked up): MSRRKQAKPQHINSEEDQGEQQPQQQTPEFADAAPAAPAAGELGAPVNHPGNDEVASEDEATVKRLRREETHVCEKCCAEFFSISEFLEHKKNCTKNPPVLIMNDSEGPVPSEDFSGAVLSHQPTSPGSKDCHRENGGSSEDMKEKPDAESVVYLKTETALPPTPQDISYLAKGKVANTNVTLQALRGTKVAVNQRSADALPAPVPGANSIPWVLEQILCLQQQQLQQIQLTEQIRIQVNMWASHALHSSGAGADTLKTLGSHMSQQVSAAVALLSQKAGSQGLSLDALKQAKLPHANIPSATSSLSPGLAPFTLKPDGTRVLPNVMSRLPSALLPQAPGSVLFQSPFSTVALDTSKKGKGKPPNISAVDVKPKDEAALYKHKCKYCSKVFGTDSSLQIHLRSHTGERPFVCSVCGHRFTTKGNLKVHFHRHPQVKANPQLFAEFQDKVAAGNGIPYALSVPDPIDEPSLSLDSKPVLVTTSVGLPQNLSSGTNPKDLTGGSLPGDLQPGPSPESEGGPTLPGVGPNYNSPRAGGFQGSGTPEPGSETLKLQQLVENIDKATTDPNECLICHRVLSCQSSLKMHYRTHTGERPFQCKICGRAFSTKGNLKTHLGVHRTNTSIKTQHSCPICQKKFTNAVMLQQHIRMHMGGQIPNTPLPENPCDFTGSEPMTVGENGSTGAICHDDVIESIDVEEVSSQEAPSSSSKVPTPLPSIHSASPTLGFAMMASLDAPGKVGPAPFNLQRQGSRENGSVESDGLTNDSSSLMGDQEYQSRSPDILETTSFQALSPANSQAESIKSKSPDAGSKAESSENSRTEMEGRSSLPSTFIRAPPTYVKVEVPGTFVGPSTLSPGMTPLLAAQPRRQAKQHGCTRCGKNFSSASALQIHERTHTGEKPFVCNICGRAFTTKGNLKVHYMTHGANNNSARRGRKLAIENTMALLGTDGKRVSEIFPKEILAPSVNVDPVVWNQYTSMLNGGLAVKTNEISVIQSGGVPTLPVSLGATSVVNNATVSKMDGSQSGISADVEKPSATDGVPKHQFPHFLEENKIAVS
Notes: 8-mer, flanks averaged, mean of replicates
The E-score of `TCAAAGAA` is reported as 0.163.
With `GGTCGGAC` the E-score was -0.31.
`ATCTCTGG` has an E-score of -0.0415.
With `GAGGAACC` the E-score was -0.206.
`GCCGCCGA` gave an E-score of -0.292.
`GAACTAGC` has an E-score of -0.133.
For `ACACACGG`, the E-score was -0.29.
For `ATAGAAAG`, the E-score was 0.156.
For `AGCCGGAG`, the E-score was -0.218.
For `GCCACGTA`, the E-score was -0.0478.
The E-score of `CTTGGCAA` is reported as -0.0704.
The E-score of `AAGCGGTC` is reported as -0.248.
`CGTATCGC` has an E-score of -0.181.

Set 2 — method: RNA Bind-n-Seq; molecule type: RNA; medium: in vitro; tested at: not given; notes: RNA with constant flanks, ends assumed; reference: input RNA pool; direction: higher = stronger binding
Target: RING finger protein unkempt homolog, zinc fingers 1-6, GST-SBP tag (UNK, Homo sapiens, UniProt Q9C0B0, residues 30-357)
Sequence of UniProt Q9C0B0 (30-357, looked up): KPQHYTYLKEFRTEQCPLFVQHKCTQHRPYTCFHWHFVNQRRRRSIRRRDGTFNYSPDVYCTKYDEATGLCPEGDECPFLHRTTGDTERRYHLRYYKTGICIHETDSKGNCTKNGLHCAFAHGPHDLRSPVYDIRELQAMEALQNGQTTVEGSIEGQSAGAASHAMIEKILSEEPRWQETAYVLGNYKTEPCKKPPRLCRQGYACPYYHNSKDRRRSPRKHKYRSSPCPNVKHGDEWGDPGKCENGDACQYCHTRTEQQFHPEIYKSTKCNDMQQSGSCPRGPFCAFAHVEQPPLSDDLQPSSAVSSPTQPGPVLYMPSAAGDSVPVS
`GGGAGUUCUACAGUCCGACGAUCAGAAGUACACAGGCUGCUACCCAAGUUGUUCUGAAUGUUCCUGAAACAAGAGUAACAUGUUCCGAAAGUGGACUCAGAGUAGCUUCGGAAGACUCUGGGCUCUCAACAUGCACAGUUGGACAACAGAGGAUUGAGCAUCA` has a bound/input enrichment of 0.109 ratio.
`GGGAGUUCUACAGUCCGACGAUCUACAUUUUACACUGUUGGUUUGUAUUUUUGUAUGUUUAUGGUGUCUGCUUGCCUGUGUCUUUCCGUAAAAUAAGACUUUAAAAUUACUUAGCAUGCUAUUUAACAUUUUCUAAAAAUUAUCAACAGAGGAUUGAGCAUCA` gave a bound/input enrichment of 5.15 ratio.
`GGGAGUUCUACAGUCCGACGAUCUACAGAGGAAGGGGUAGAGGGUAUUAUCAAGGAGGAGGAGGUAGAUAUCAUCGAGGUGGUUACCGACCUGUCUGGAAUAGAAGGCACUCUAGGAGUCCUAGACGAGGUCGUUCACGUUCCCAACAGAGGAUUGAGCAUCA` has a bound/input enrichment of 0.232 ratio.
The bound/input enrichment of `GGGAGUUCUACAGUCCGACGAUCAAAAUCAAAAACAUUUUCAUAUAUACCAGAGUACUGUAAAAUCUAGGUUUUUUUCAACAUCCGCAGUAAAUUGAGCACUGUUUACUGUUUCAUUGUACCAUGAAACCAUUUGAUUUUUACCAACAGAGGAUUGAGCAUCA` is reported as 0.342 ratio.
With `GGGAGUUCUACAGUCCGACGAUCAUGUUUGAACGUGUUUCAGAUGUCAUGUGUUUAGUUUUUAUAUGUGUGUACAUAAUUAUAUACCGAGAUAGACUUGUGUAUACACCUUCCACAAACACAUCCUCACGGAGAUACAUGUGCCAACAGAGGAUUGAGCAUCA` the bound/input enrichment was 0.311 ratio.
With `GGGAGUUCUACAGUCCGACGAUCUUUUUUUUUCCUCUUAACUCUGUCUGCUCUUAAAGCCAGGCAACCCAGUUUGGUCUCAGGCACCGCCUGAGCAGAUCUUAGUUUUGCCCCCACCACCAUAGUUUUGUGCUAUCCUAGUUUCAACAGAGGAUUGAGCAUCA` the bound/input enrichment was 5.61 ratio.
`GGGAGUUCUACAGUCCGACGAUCCAAGUACAUCUUGGUGUUAGUGAUGAUCUUGGAUUGCUUGCUCACAUGACCGGUAGCGCCGACUUAACUUGUACAUCCAGUAUAAUAGAAGAAAAAGAAUUCAAAAUCCAUACAACUUCACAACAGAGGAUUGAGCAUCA` has a bound/input enrichment of 0.628 ratio.
`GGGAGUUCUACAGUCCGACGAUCGAAGGGGUCUUGGUGUUUAAAGCAUAAGUUACCUGUUUGCACUGUUUUCAAAUAGGAAACAACCGUGGGCACGGUGAACAUCUAAUGUAAACGUGUGUUUUCUUUUGUCAUGCUCUUGAGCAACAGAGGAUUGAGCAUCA` gave a bound/input enrichment of 0.18 ratio.

Set 3 — method: protein binding microarray; molecule type: double-stranded DNA, one strand shown; medium: in vitro; tested at: not given; reference: not given; direction: higher = stronger binding
Target: Histone acetyltransferase KAT6A, both winged helices, GST fusion (KAT6A, Homo sapiens, UniProt Q92794, residues 1-181)
Notes: 8-mer, flanks averaged, mean of 2 arrays, mostly near background
Target sequence (chain): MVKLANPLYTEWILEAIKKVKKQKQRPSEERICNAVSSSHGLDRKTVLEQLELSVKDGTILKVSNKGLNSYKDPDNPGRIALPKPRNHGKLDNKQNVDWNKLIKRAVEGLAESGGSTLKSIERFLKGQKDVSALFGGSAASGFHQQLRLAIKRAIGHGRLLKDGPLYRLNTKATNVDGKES
`ACAGACTC` gave an E-score of -0.0665.
`CGAAGTAC` has an E-score of 0.0955.
The E-score of `AACACGTG` is reported as 0.0614.
`GACGCCCC` has an E-score of 0.057.
The E-score of `CTACACAA` is reported as -0.0534.
`AAGGTCGT` has an E-score of -0.153.
For `ACATCGTA`, the E-score was 0.0707.

Single results of other studies
The fold induction of `PhoQ, residues 284 288 289 292 302 303 TLSLKA` is reported as 5.73 (PhoP, residues 12 14 15 18 19 LHATL (Escherichia coli, UniProt P23836); Sort-seq, refers to: YFP reporter; E. coli; PhoQ-PhoP variant library, together with: 10 µM Mg2+; reference: high Mg2+ state, higher = stronger signaling).

For quick reference, copied from above (set 1):
With `GAGGAACC` the E-score was -0.206.
`GCCGCCGA` gave an E-score of -0.292.
`GAACTAGC` has an E-score of -0.133.
